Experimental data collected from several papers.
A part holds a random share of what one study measured.

Study 1 — method: universal PBM; molecule type: double-stranded DNA, one strand shown; medium: in vitro; tested at: not given; direction: higher = stronger binding
Target: Sal-like protein 4, full length isoform B (SALL4, Homo sapiens, UniProt Q9UJQ4-2, residues 1-616)
Notes: 8-mer, flanks averaged, mean of replicates
Construct (chain): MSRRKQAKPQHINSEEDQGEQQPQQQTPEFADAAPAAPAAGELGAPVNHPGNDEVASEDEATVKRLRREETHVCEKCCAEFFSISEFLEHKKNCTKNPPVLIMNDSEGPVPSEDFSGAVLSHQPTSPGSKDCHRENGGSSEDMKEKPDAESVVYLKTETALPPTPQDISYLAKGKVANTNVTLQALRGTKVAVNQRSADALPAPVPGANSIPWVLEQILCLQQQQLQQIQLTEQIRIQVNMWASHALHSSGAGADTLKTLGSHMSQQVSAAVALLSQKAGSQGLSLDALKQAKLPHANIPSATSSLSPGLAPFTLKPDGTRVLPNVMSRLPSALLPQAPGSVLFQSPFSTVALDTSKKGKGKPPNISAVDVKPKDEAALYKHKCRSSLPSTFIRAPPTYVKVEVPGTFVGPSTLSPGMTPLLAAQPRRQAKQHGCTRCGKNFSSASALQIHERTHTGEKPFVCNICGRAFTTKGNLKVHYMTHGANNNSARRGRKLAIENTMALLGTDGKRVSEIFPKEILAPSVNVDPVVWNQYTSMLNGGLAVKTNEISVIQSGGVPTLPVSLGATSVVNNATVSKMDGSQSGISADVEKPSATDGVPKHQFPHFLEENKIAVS
Oligonucleotide	E-score
CATGTTCG	0.0238
CCACCTAA	-0.00301
TATCCAAA	0.231
CAAGACAC	0.049
CGCAACTA	-0.0219
CATAAGCA	0.186
GTTACCCA	-0.173
ACTAGCGG	-0.188

Study 2 — method: protein-binding microarray; molecule type: double-stranded DNA, one strand shown; medium: in vitro; tested at: 250 nM; notes: 60-bp whole probe; together with: salmon DNA 0.4 mg/ml; reference: random background probes; direction: higher = stronger binding; constant ends, left off below: GCCTAGCAC … GTCTTGATTCGCTTGACGCTGCTG
Target: Interferon regulatory factor 7, full length, phosphomimetic (IRF7, Homo sapiens, UniProt Q92985, residues 1-503, S101K/S471D/S472D/S475D/S476D/S477D/S483D/S484D/S487D)
Chain of UniProt Q92985 (whole entry, unmodified, looked up): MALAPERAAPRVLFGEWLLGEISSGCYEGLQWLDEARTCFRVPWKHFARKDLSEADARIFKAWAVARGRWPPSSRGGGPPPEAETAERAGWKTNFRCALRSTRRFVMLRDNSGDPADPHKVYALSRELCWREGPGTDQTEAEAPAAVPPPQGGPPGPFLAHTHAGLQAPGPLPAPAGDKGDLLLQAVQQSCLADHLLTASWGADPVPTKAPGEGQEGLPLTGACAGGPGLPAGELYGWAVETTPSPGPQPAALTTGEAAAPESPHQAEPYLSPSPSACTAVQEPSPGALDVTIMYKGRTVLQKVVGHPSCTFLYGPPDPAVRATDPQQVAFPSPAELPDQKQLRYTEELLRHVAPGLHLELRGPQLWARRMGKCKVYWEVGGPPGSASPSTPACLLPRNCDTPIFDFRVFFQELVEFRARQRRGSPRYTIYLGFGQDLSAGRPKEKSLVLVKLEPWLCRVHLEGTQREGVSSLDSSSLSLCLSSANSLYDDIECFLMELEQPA
Oligonucleotide	log fluorescence [z-score]
GACGATTTCGGTACTGGAGACGTGCTA	0.119
GACGGTTTCGGTTCCGGGACGTGCTAG	13
ACATATTTGTTTCCATTTTCGTGCTAG	3.29
TCACTTTTTTTTCTTTAACTGTGCTAG	1.2
GACGGTTTTGGTCTCGGGACGTGCTAG	1.01
TCACTTTCAGTTTTCCTACTGTGCTAG	2.81

Study 3 — method: protein binding microarray; molecule type: double-stranded DNA, one strand shown; medium: in vitro; tested at: not given; reference: not given; direction: higher = stronger binding
Target: Histone acetyltransferase KAT6A, both winged helices, GST fusion (KAT6A, Homo sapiens, UniProt Q92794, residues 1-181)
Notes: 8-mer, flanks averaged, mean of 2 arrays, mostly near background
Residues (chain): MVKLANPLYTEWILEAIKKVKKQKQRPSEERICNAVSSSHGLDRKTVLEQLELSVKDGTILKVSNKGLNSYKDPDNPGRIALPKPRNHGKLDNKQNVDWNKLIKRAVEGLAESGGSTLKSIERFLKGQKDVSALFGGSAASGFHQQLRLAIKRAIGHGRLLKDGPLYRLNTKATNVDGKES
Oligonucleotide	E-score
CCCACCCA	-0.244
ACAGTTCG	0.136
ACGGTCTG	0.0874
CACTTCAC	-0.0166
GCCTTCCA	-0.21
GCCTTGTA	-0.0313

Single results of other studies
Substance	target	assay	test system	setting	how to read	endpoint	result
PhoQ, residues 284 288 289 292 302 303 NSMLDC	PhoP, residues 12 14 15 18 19 NMSFL (Escherichia coli, UniProt P23836)	Sort-seq, item: YFP reporter	E. coli	PhoQ-PhoP variant library, together with: 10 µM Mg2+	reference: high Mg2+ state, higher = stronger signaling	fold induction	8.97

Excerpt of the above (study 1):
Oligonucleotide	E-score
GTTACCCA	-0.173
ACTAGCGG	-0.188
